Published values of several laboratories.
Lines come from different studies, so protocols differ. ± gives the spread as reported.

| Structure (SMILES) | test | system | conditions | Cmax [ng/mL] |
| --- | --- | --- | --- | --- |
| CCN1CCN(c2ccc(Nc3cc(N(C)C(=O)Nc4c(Cl)c(OC)cc(OC)c4Cl)ncn3)cc2)CC1 | LC-MS/MS | juvenile female Crl:WI(Han) rats, plasma | oral gavage, 0.1 mg/kg/day, postnatal day 17 | 9.06 |
| CC(C)NC[C@@H](C(=O)N1CCN(c2ncnc3c2[C@H](C)C[C@H]3O)CC1)c1ccc(Cl)cc1 | – | human, matched normal hepatic function (Child-Pugh), plasma | oral, 100 mg single, reference geometric mean, vs Mild | 53.7 |
| CS(=O)(=O)c1ccc(-c2cnc(N)c(-c3ccc(C(F)(F)F)nc3)c2)cc1 | – | pregnant female Sprague-Dawley rat, plasma | oral, 10 mg/kg/day, gestation day 17 | 2380 |
| O=c1[nH]c(=O)c(Cc2cccc(C(F)(F)F)c2)c([C@H]2CC[C@H](c3ccccc3)CC2)[nH]1 | – | human, plasma | oral, 900 mg once daily, day 14, geometric mean | 935 |
| CCCC[C@H](NC(C)=O)C(=O)N[C@H]1CCC(=O)NC[C@@H](C(=O)N[C@@H](Cc2c[nH]c3ccccc23)C(N)=O)NC(=O)[C@H](CCCNC(=N)N)NC(=O)[C@@H](Cc2ccccc2)NC(=O)[C@H](Cc2c[nH]cn2)NC1=O | – | beagle dog, female, plasma | subcutaneous, 1.5 mg/kg daily, day 28 | 96 |
| C[C@H]1CN(C2COC2)CCN1c1ccc(Nc2cc(-c3ccnc(N4CCn5c(cc6c5CC(C)(C)C6)C4=O)c3CO)cn(C)c2=O)nc1 | – | cynomolgus monkey, male | oral, 10 mg/kg | 12.9 |
| C=CC(N)CCC(=O)O (stereo not drawn) | – | male Sprague-Dawley rat, plasma | oral, 10 mg/kg, formulation 8, together with: infant formula 1500 mg/kg | 9240 ± 731 |
| CCCCCCCCCCCCCCCCCCOP(=O)([O-])OC1CC[N+](C)(C)CC1 | – | rhesus monkey, male, cerebrospinal fluid | oral, 7 mg/kg, single dose, mean of 3 | 3.6 |
| CC1=C2C[C@H]3[C@@H](CC[C@@H]4C[C@H](NS(C)(=O)=O)CC[C@@]43C)[C@@H]2CC[C@@]2(C1)O[C@@H]1C[C@H](C)CN[C@H]1[C@H]2C | – | patients, plasma | oral, 210 mg daily, day 22, cycle 1 | 595 |
| CC(C)=CCC[C@](C)(O[C@@H]1O[C@H](CO)[C@@H](O)[C@H](O)[C@H]1O)[C@H]1CC[C@]2(C)[C@@H]1[C@H](O)C[C@@H]1[C@@]3(C)CC[C@H](O[C@@H]4O[C@H](CO)[C@@H](O)[C@H](O)[C@H]4O[C@@H]4O[C@H](CO)[C@@H](O)[C@H](O)[C@H]4O)C(C)(C)[C@@H]3CC[C@]12C | – | Sprague-Dawley rat, plasma | oral, 200 mg/kg ginsenoside Rb1 | 72.4 ± 31.6 |
| CO[C@H]1C[C@@H]2CC[C@@H](C)[C@@](O)(O2)C(=O)C(=O)N2CCCC[C@H]2C(=O)O[C@H]([C@H](C)C[C@@H]2CC[C@@H](O)[C@H](OC)C2)CC(=O)[C@H](C)/C=C(\C)[C@@H](O)[C@@H](OC)C(=O)[C@H](C)C[C@H](C)/C=C/C=C/C=C/1C | – | human, whole blood | oral, 20 mg, together with: grapefruit juice | 105 |
| Cc1cc(Nc2cc3ncccc3c(N[C@@H]3C[C@H]4CC[C@@H](C3)N4CCC#N)n2)n[nH]1 | – | beagle dog, male, plasma | oral, 10 mg/kg/day, last day of 39 weeks | 7.5 |

Some of these lines once more:
| Structure (SMILES) | test | system | conditions | Cmax [ng/mL] |
| --- | --- | --- | --- | --- |
| O=c1[nH]c(=O)c(Cc2cccc(C(F)(F)F)c2)c([C@H]2CC[C@H](c3ccccc3)CC2)[nH]1 | – | human, plasma | oral, 900 mg once daily, day 14, geometric mean | 935 |
